Assay results gathered from unrelated publications.
Each numbered part is a random draw from the data of one study; scales do not carry over between parts.

Study 1
Target: RING finger protein unkempt homolog, zinc fingers 1-6, GST-SBP tag (UNK, Homo sapiens, UniProt Q9C0B0, residues 30-357)
Method: RNA Bind-n-Seq
Form: RNA
Medium: in vitro
Tested at: not given
Setting: RNA with constant flanks, human and mouse sites, ends assumed
Reference: input RNA pool
Direction: higher = stronger binding
Residues (chain): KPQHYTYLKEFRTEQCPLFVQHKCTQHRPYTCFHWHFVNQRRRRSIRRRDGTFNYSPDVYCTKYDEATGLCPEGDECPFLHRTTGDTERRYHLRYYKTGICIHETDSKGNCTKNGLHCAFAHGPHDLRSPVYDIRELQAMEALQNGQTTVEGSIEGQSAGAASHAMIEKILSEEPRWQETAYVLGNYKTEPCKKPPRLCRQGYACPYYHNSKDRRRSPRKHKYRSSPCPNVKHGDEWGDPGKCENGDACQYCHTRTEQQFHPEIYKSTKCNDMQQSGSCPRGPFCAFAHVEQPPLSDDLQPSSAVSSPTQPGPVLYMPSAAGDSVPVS
For `GGGAGUUCUACAGUCCGACGAUCAGCCAGUCUGUCUGUGAUUAUUUCUUUGAAGCUCAAGAGAAAGCUGCUGAUGUUGAAAAUGUACCACCUGUCAUUUCAACACCUCACCACUACCUCAUCAGUAUCUACCGGGAUAAGCUCCAACAGAGGAUUGAGCAUCA`, the bound/input enrichment was 0.0965 ratio.
For `GGGAGUUCUACAGUCCGACGAUCCUCCACUCACAAGAAAUGCCCUUUAAUUUCUACUGUUUACAAACAAAGCUCUCCAGGUCUUAUUCUGUCUCUCAAGUGUACUGGACAAAACUGACCGUGGUUCCUCAAGCAAUGUUUGGUCAACAGAGGAUUGAGCAUCA`, the bound/input enrichment was 0.157 ratio.
The bound/input enrichment of `GGGAGUUCUACAGUCCGACGAUCCAGCACCCCAUCAAACCAGUGGUUCAUCCAACCGCUACCCCAAGCACUGUUCCUUCUAGUCCAUUUACGCUUCAGUCUGAUCACCAGCCAAAGAAAUCAUUUGAUGCUAAUGGAGCAUCUCAACAGAGGAUUGAGCAUCA` is reported as 0.488 ratio.
`GGGAGUUCUACAGUCCGACGAUCGUGGCUGAUAUCUCUGUUGCUAAAAUAGAUCCUUUAGCACCUUUGGAUAAAGUCUGCCUUCUAGGUUGUGGCAUUUCAACCGGUUAUGGUGCUGCUGUGAACACUGCCAAGUUGGAGCCUCAACAGAGGAUUGAGCAUCA` gave a bound/input enrichment of 0.302 ratio.

Study 2
Target: Transcriptional repressor CTCF (CTCF, Homo sapiens, UniProt P49711, residues 1-727, full length assumed)
Method: protein-binding microarray
Form: double-stranded DNA, one strand shown
Medium: in vitro
Tested at: not given
Setting: k-mer, scored over probes, only values ≥0.25
Direction: higher = stronger binding
Residues (chain): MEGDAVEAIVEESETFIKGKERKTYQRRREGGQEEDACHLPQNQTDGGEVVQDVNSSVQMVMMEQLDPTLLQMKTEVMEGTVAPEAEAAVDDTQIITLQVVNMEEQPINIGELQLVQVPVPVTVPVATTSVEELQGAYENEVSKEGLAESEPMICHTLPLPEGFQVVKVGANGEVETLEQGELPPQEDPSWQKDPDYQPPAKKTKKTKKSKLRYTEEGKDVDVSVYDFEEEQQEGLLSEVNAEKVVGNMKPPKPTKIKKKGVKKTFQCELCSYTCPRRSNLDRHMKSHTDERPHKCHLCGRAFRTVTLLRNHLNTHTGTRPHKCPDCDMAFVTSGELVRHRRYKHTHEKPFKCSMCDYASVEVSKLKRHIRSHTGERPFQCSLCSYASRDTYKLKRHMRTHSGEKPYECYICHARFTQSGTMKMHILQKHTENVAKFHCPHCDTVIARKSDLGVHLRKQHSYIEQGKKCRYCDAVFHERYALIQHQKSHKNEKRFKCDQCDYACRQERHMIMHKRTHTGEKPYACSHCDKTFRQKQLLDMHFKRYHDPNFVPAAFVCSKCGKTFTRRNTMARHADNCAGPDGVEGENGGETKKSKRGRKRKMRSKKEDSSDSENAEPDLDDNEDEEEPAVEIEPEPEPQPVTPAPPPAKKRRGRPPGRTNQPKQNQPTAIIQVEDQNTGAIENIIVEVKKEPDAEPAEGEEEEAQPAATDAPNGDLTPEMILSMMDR
`GTATGATA` gave an E-score of 0.349.
For `AATATAGT`, the E-score was 0.296.
`ATATAGGA` gave an E-score of 0.274.
`AATTGATA` has an E-score of 0.306.
`ATGCGCGC` gave an E-score of 0.369.

Study 3
Target: Sal-like protein 4, full length isoform B (SALL4, Homo sapiens, UniProt Q9UJQ4-2, residues 1-616)
Method: universal PBM
Form: double-stranded DNA, one strand shown
Medium: in vitro
Tested at: not given
Setting: 8-mer, flanks averaged, mean of replicates
Direction: higher = stronger binding
Target sequence (chain): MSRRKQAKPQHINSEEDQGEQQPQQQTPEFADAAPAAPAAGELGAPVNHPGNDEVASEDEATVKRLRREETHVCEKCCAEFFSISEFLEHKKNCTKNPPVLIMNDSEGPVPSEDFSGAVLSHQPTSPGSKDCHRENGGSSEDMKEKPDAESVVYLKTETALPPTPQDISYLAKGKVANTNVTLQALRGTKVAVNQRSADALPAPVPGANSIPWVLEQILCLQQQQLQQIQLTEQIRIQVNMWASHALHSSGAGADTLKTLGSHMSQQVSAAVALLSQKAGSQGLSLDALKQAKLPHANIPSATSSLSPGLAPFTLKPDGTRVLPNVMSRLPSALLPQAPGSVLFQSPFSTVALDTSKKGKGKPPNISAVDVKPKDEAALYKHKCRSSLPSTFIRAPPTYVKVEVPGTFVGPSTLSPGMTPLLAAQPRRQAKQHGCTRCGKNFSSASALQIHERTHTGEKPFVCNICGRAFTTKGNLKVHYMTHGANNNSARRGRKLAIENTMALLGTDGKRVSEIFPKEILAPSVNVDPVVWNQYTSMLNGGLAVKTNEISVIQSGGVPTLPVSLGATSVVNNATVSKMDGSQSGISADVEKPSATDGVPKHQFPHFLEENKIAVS
For `GGAAAGAA`, the E-score was -0.0135.
With `ACTGACGA` the E-score was 0.0432.
For `AAGCCCGA`, the E-score was -0.142.
`GTGGCAAC` gave an E-score of -0.198.
The E-score of `CGTTCTTC` is reported as 0.00519.
For `AATTGTGT`, the E-score was 0.138.
With `CCAACGGC` the E-score was -0.315.

Further values, each from its own experiment
The fold induction of `PhoQ, residues 284 288 289 292 302 303 SIHMAM` is reported as 16.8 (PhoP, residues 12 14 15 18 19 GQALL (Escherichia coli, UniProt P23836); Sort-seq, item: YFP reporter; E. coli; PhoQ-PhoP variant library, with: 10 µM Mg2+; reference: high Mg2+ state, higher = stronger signaling).
